Measurements collected from several papers.
± gives the spread as reported. Converted amounts (≈) assume the structure as drawn.

CCC(CC)COC(=O)[C@H](C)N[P@](=O)(OC[C@H]1O[C@@](C#N)(c2ccc3c(N)ncnn23)[C@H](O)[C@@H]1O)Oc1ccccc1
cell viability (Betacoronavirus 1; virus-induced cytotoxicity; Huh-7.5, HCoV-OC43; 1 µM, 5 days): 100 ± 4%

CC(C=CC1(C)C(C)CCC(=O)C1C)=CCc1c(O)c(C=O)c(C)c(Cl)c1OC(=O)c1cccnc1 (stereo not drawn)
IC50 (Wickerhamomyces anomalus; O2 uptake, inhibitor; mitochondria; added: NADH 1 mM): 0.4 µM

CC1(C)S[C@@H]2[C@H](NC(=O)[C@H](N)c3ccc(O)cc3)C(=O)N2[C@H]1C(=O)O
sensitive strains (other non-fermenting bacteria; community-acquired pneumonia patients; Fine score 70 or more): 0%

CC[C@H]1OC(=O)[C@H](C)[C@@H](O[C@H]2C[C@@](C)(OC)[C@@H](O)[C@H](C)O2)[C@H](C)[C@@H](O[C@@H]2O[C@H](C)C[C@H](N(C)C)[C@H]2O)[C@](C)(OC)C[C@@H](C)C(=O)[C@H](C)[C@@H](O)[C@]1(C)O
FIC index (Staphylococcus aureus; checkerboard broth microdilution; methicillin-susceptible isolate 56-96; added: magainin II): 1

CO/N=C(\N)c1ccc(-c2cncc(-c3ccc(/C(N)=N\OC)cc3)n2)cc1
cured mice (Trypanosoma brucei rhodesiense; STIB900, mouse, acute infection; oral, 10 mg/kg daily, 4 days, parasite-free survival 60 days): 75%

Cc1ccc(S(=O)(=O)N2C(=O)CSC2c2ccccc2F)cc1 (stereo not drawn)
MIC (Streptococcus pneumoniae; broth microdilution; ATCC 49619): 64 µg/mL (≈ 182 µM)

CCC(=O)O[C@H]1[C@H](C)O[C@@H](O[C@H]2[C@H](N(C)C)[C@@H](O)[C@H](O[C@H]3[C@@H](CC=O)C[C@@H](C)[C@@H](O)/C=C/C=C/C[C@@H](C)OC(=O)C[C@@H](O)[C@@H]3OC)O[C@@H]2C)C[C@@]1(C)O
inhibition zone diameter (Mycolicibacterium vaccae; IMET 10670, DMSO-methanol; 50 µL of 2.0 mM, 24 h, 37 °C, 9 mm well): 40 mm

CO/N=C(\N)c1ccc(-c2cncc(-c3ccc(/C(N)=N\OC)nc3)n2)cn1
cured mice (Trypanosoma brucei rhodesiense; STIB900, mouse, acute infection; oral, 25 mg/kg daily, 4 days, parasite-free survival 60 days): 25%

Cc1ccc(S(=O)(=O)N2C(=O)CSC2c2ccccc2C)cc1 (stereo not drawn)
MIC (Streptococcus pneumoniae; broth microdilution; ATCC 49619): 128 µg/mL (≈ 368 µM)

O=C(Nc1ccc(Cl)cc1)N1CCN(c2ccc3nncn3n2)CC1
EC90 (Cryptosporidium parvum; HCT-8; corrected for mouse protein binding): 2.8 µM

Fc1cc(-c2nc3ccc(Cl)cc3[nH]2)ccc1OCc1cn(CCN2CCOCC2)nn1
MIC (Enterococcus faecalis; microbial growth, broth dilution; ATCC29212): > 256 µg/mL

O=C(Nc1ccc(NCc2ccc(F)cc2)cc1Cl)c1cc(Cl)ccc1O
virus titre log reduction (human respiratory syncytial virus; infectious progeny production; A549; 10 µM, 15 h; reference: vehicle): ~1.5 log10

C=C1[C@H](CO)[C@@H](O)C[C@@H]1n1cnc2c(=O)[nH]c(N)nc21
serum WHV DNA reduction (woodchuck hepatitis virus; woodchuck; oral, 0.1 mg/kg/day, monotherapy): 7.72 log10

O=C(N[C@H](Cc1c[nH]c2ccccc12)C(=O)Nc1ccncc1)c1ccc(-c2ccc(F)c(C(F)(F)F)c2)cc1F
parasite inhibition (Trypanosoma cruzi; Y luc, mouse; oral, 50 mg/kg twice daily, 4 days, vehicle 20% Solutol): > 90%

C[S+]([O-])c1ccc(-c2nc(-c3ccncc3)c(-c3ccc(F)cc3)[nH]2)cc1 (stereo not drawn)
inhibition (Enterovirus A71; IRES reporter activity; RD; 2 µM, 2 h, added: 2A protease): 32%

CC(C)=CCCC(C)=CC=O (mixture of isomers)
time to 1 log10 kill (Cryptococcus neoformans; CN, PBS; 2 x MIC, up to 48 h, 37 °C; reference: untreated): 19 to 20 h

Clc1nc(Cl)c2[nH]cnc2n1
inhibition (Helicobacter pylori; microbial growth, absorbance; 26695; 1.25 mM): 93%

Cc1ccc(S(=O)(=O)N2C(=O)CSC2c2cccc(F)c2)cc1 (stereo not drawn)
MIC (Streptococcus pneumoniae; broth microdilution; ATCC 49619): 32 µg/mL (≈ 91.1 µM)

C=CCc1ccc(O)c(OC)c1
time to 1 log10 kill (Cryptococcus neoformans; CN, PBS; 2 x MIC, up to 48 h, 37 °C; reference: untreated): 7 h

C#CCNC(=O)C(=O)c1c(C)c(C(=O)Nc2ccc(F)c(F)c2)n(C)c1C
EC50 (hepatitis B virus; viral replication, chemiluminescence immunoassay, measured: secreted HBeAg; HBV-infected HepG2-NTCP cells; day 8 post-infection, daily from day 4 post-infection): 32.1 µM

Cc1ccc(S(=O)(=O)N2C(=O)CSC2c2ccccc2Br)cc1 (stereo not drawn)
MIC (Streptococcus pneumoniae; broth microdilution; ATCC 49619): 128 µg/mL (≈ 310 µM)

CC[C@H](C)[C@H](NC(=O)CNC(=O)[C@H](CCC(=O)O)NC(=O)[C@H](CO)NC(=O)[C@@H](NC(=O)[C@H](CCCNC(=N)N)NC(=O)[C@H](CCCCN)NC(=O)[C@H](CCCCN)NC(=O)[C@H](C)NC(=O)[C@H](CO)NC(=O)[C@H](CC(N)=O)NC(=O)[C@H](CCC(=O)O)NC(=O)[C@H](CC(C)C)NC(=O)[C@H](CCCCN)NC(=O)[C@H](CCCCN)NC(=O)[C@H](C)NC(=O)[C@@H](NC(=O)[C@H](CCCCN)NC(=O)[C@H](CO)NC(=O)[C@H](CC(C)C)NC(=O)[C@H](Cc1c[nH]c2ccccc12)NC(=O)[C@@H](N)CO)[C@@H](C)O)[C@@H](C)CC)C(=O)N[C@@H](C)C(=O)N[C@H](C(=O)N[C@@H](C)C(=O)N[C@H](C(=O)N[C@@H](CCC(N)=O)C(=O)NCC(=O)NCC(=O)N1CCC[C@H]1C(=O)N[C@@H](CCCNC(=N)N)C(=O)O)[C@@H](C)CC)[C@@H](C)CC
MIC range (Escherichia coli; broth microdilution; 18 h, 30 clinical isolates): 0.125 to 2 µg/mL (≈ 0.0374 to 0.599 µM)

NS(=O)(=O)c1nnc(NC(=O)CC2CCCCC2)s1
MIC90 (Neisseria gonorrhoeae; broth microdilution; clinical isolates): 2 µg/mL (≈ 6.57 µM)

c1ccc2[nH]c(-c3ccc(OCCN4CCOCC4)cc3)nc2c1
MIC (Enterococcus faecalis; microbial growth, broth dilution; ATCC29212): > 256 µg/mL

CC(C)Nc1ccc(NC(=O)c2cc(Cl)ccc2O)c(Cl)c1
virus titre log reduction (human respiratory syncytial virus; infectious progeny production; A549; 10 µM, 15 h; reference: vehicle): ~1.8 log10

CC[C@H]1OC(=O)[C@H](C)[C@@H](O[C@H]2C[C@@](C)(OC)[C@@H](O)[C@H](C)O2)[C@H](C)[C@@H](O[C@@H]2O[C@H](C)C[C@H](N(C)C)[C@H]2O)[C@](C)(O)C[C@@H](C)CN(C)[C@H](C)[C@@H](O)[C@]1(C)O
sensitive strains (other non-fermenting bacteria; community-acquired pneumonia patients; Fine score 70 or more): 0%

O=C(N[C@H](Cc1c[nH]c2ccccc12)C(=O)Nc1ccncc1)c1ccc(-c2cccc(F)c2)cc1F
parasite inhibition (Trypanosoma cruzi; Y luc, mouse; oral, 50 mg/kg twice daily, 4 days, vehicle 20% Solutol): > 70%

Cc1[nH]c2ccccc2c(=O)c1CC=C(Cl)Cl
IC50 (Trypanosoma cruzi; imaging; 3T3 fibroblasts, amastigote; 48 h): 1.23 ± 0.61 µM

Cc1ccc(S(=O)(=O)N2C(=O)CSC2c2cccc(O)c2)cc1 (stereo not drawn)
MIC (Streptococcus pneumoniae; broth microdilution; ATCC 49619): 64 µg/mL (≈ 183 µM)

CC[C@H](C)[C@H](NC(=O)[C@H](CCCCN)NC(=O)[C@H](CCC(=O)O)NC(=O)[C@H](CCCCN)NC(=O)[C@H](CO)NC(=O)[C@H](CCCCN)NC(=O)[C@H](CCCNC(=N)N)NC(=O)[C@H](Cc1ccccc1)NC(=O)[C@H](Cc1ccccc1)NC(=O)[C@H](CC(=O)O)NC(=O)CNC(=O)[C@H](CC(C)C)NC(=O)[C@@H](N)CC(C)C)C(=O)NCC(=O)N[C@@H](CCCCN)C(=O)N[C@@H](CCC(=O)O)C(=O)N[C@@H](Cc1ccccc1)C(=O)N[C@@H](CCCCN)C(=O)N[C@@H](CCCNC(=N)N)C(=O)N[C@H](C(=O)N[C@H](C(=O)N[C@@H](CCC(N)=O)C(=O)N[C@@H](CCCNC(=N)N)C(=O)N[C@H](C(=O)N[C@@H](CCCCN)C(=O)N[C@@H](CC(=O)O)C(=O)N[C@@H](Cc1ccccc1)C(=O)N[C@@H](CC(C)C)C(=O)N[C@@H](CCCNC(=N)N)C(=O)N[C@@H](CC(N)=O)C(=O)N[C@@H](CC(C)C)C(=O)N[C@H](C(=O)N1CCC[C@H]1C(=O)N[C@@H](CCCNC(=N)N)C(=O)N[C@H](C(=O)N[C@@H](CCC(=O)O)C(=O)N[C@@H](CO)C(=O)O)[C@@H](C)O)C(C)C)[C@@H](C)CC)C(C)C)[C@@H](C)CC
HBsAg level (hepatitis B virus; measured: HBsAg in medium; HepG2-NTCP; 10 µM, continuous treatment; reference: control treated): decreased

C/C=C(C)/C=C/C=C/[C@H](OC)[C@@H](C)[C@@H](OC)[C@@H](C)CCc1oc2c(O)c(OC)cc(OC)c2c(=O)c1C
IC50 (Wickerhamomyces anomalus; O2 uptake, inhibitor; mitochondria; added: succinate 15 mM): 0.028 µM

Clc1nc(OCc2ccccc2)c2[nH]cnc2n1
inhibition (Helicobacter pylori; microbial growth, absorbance; 26695; 350 µM): ~75%

COc1c(Cl)c(C)c(C=O)c(O)c1C/C=C(C)/C=C/[C@@]1(C)[C@H](C)CCC(=O)[C@@H]1C
IC50 (Wickerhamomyces anomalus; O2 uptake, inhibitor; mitochondria; added: duroquinol 1 mM): 4.2 µM

O=C1NC(=S)S/C1=C\c1cn(Cc2ccccc2)c2ccc([N+](=O)[O-])cc12
IC50 (Trypanosoma brucei rhodesiense; trypomastigotes, IL1501): > 73 µM

CO/N=C(\N)c1ccc(-c2cncc(-c3ccc(/C(N)=N\OC)cn3)n2)nc1
cured mice (Trypanosoma brucei rhodesiense; STIB900, mouse, acute infection; oral, 25 mg/kg daily, 4 days, parasite-free survival 60 days): 50%

CC(/C=C/[C@@]1(C)[C@H](C)CCC(=O)[C@@H]1C)=C\Cc1c(O)c(Cl)c(C)c(C=O)c1O
IC50 (Wickerhamomyces anomalus; O2 uptake, inhibitor; mitochondria; added: succinate 15 mM): 0.036 µM

Clc1nc(SCc2ccccc2)c2[nH]cnc2n1
inhibition (Helicobacter pylori; microbial growth, absorbance; 26695; 40 µM): 92%

C[C@@H]1CN(c2c(F)c(N)c3c(=O)c(C(=O)O)cn(C4CC4)c3c2F)C[C@H](C)N1
worm length reduction (Litomosoides sigmodontis; mouse; i.p., 25 mg/kg/day for 10 days): 28.6%

CC(C=CC1(C)C(C)CCC(=O)C1C)=CCc1c(O)c(C=O)c(C)c(Cl)c1OCC(=O)O (stereo not drawn)
IC50 (Wickerhamomyces anomalus; O2 uptake, inhibitor; mitochondria; added: NADH 1 mM): 44 µM

CC[C@H]1OC(=O)[C@H](C)[C@@H](O[C@H]2C[C@@](C)(OC)[C@@H](O)[C@H](C)O2)[C@H](C)[C@@H](O[C@@H]2O[C@H](C)C[C@H](N(C)C)[C@H]2O)[C@](C)(O)C[C@@H](C)C(=O)[C@H](C)[C@@H](O)[C@]1(C)O
sensitive strains (Streptococcus pneumoniae; community-acquired pneumonia patients; Fine score 70 or more): 100%

N/C(=N\O)c1ccc(-c2cncc(-c3ccc(/C(N)=N\O)nc3)n2)cn1
cured mice (Trypanosoma brucei rhodesiense; STIB900, mouse, acute infection; oral, 10 mg/kg daily, 4 days, parasite-free survival 60 days): 25%

C[C@H]1c2cccc(O)c2C(=O)C2=C(O)[C@]3(O)C(=O)C(C(N)=O)=C(O)[C@@H](N(C)C)[C@@H]3[C@@H](O)[C@@H]21
FIC index (Staphylococcus aureus; checkerboard broth microdilution; clinical isolate 21-99; added: magainin II): 0.75
